Measured values of several laboratories.
Lines come from different studies, so protocols differ. ± gives the spread as reported. ≈ marks a conversion by molar mass, not a printed value.

Compound	cell line	test	conditions	how to read	measurement	result
C=CCc1ccc(O)c(-c2cc(CC=C)ccc2OCCCCCCCCCC[P+](c2ccccc2)(c2ccccc2)c2ccccc2)c1	A-375	HPLC, item: 2-hydroxyethidium	0.5 µM, 24 h		hydroethidine oxidation products	increased
COc1cc(CNC(=O)C[C@H](C)CCC=C(C)C)ccc1OCc1cn(-c2ccccc2Cl)nn1	HOP-92	SRB	10 µM, 48 h		growth percent	79.4%
CCC(C(=O)O)C1CCC(C)C(C(C)C(O)C(C)C(=O)C(CC)C2OC3(C=CC(NCc4cn(CSc5ccccc5)nn4)C4(CCC(C)(C5CCC(O)(CC)C(C)O5)O4)O3)C(C)CC2C)O1 (stereo not shown)	HMLER	cell proliferation		reference: IC50 CD24high/CD44low over IC50 CD24low/CD44high	selectivity ratio	32.7
COc1ccc(-c2nc3ccc(C4=NNC(=O)CC4C)cc3[nH]2)cc1 (stereo not shown)	hiPSC cardiac tissues 3D	active force	15 min per concentration, paced at 1 Hz serum-free		minimum effective concentration	3 µM
COc1cc(CNC(=O)C[C@H](C)CCC=C(C)C)ccc1OCc1cn(-c2ccccc2)nn1	SK-OV-3 ovarian cancer cells	SRB	10 µM, 48 h		growth percent	48%
COc1ccc([C@@H]2CC(=O)c3c(O)cc(O[C@@H]4O[C@H](CO[C@@H]5O[C@@H](C)[C@H](O)[C@@H](O)[C@H]5O)[C@@H](O)[C@H](O)[C@H]4O)cc3O2)cc1O	MRC5	trypan blue exclusion	150 µg/mL, 72 h		cell count	17900 ± 508
N=C(N/N=C/c1cccs1)N/N=C/c1cccs1	PANC-1	crystal violet	72 h	reference: IC50 hTERT-HPNE over IC50 PANC-1	selectivity ratio	2.4
CC(CCC(=O)NCc1ccc(C(=O)NO)cc1)C1CCC2C3C(O)CC4CC(O)CCC4(C)C3CCC12C (stereo not shown)	polycystic liver disease cholangiocytes (human)	immunoblot	concentration not given		acetylated α-tubulin level	increased
CCC(=C(c1ccc(Cl)cc1)c1ccc(OCCN(CC)CC)cc1)c1ccc(OC)cc1	Ishikawa	estrogenic activity, agonist	10 nM, 72 h, unit not given	reference: DMSO	alkaline phosphatase activity	1.32 ± 0.25
N=C(N/N=C/c1ncc[nH]1)N/N=C/c1ncc[nH]1	PANC-1	crystal violet	72 h	reference: IC50 hTERT-HPNE over IC50 PANC-1	selectivity ratio	26.6
COc1cc(CNC(=O)C[C@H](C)CCC=C(C)C)ccc1OCc1cn(-c2cccc(C(F)(F)F)c2)nn1	TK-10	SRB	10 µM, 48 h		growth percent	102%
N=C(N/N=C/c1ccc2ccccc2c1)N/N=C/c1ccc2ccccc2c1	PANC-1	crystal violet	72 h	reference: IC50 hTERT-HPNE over IC50 PANC-1	selectivity ratio	2.6
C=C1[C@H](O)CC(=C/C=C2\CCC[C@]3(C)[C@@H]([C@@H](C)CCCC)CC[C@@H]23)C[C@H]1O	rat osteosarcoma cells	reporter gene, luciferase, item: CYP24A1 (24-hydroxylase) promoter		reference: compound over 1α,25-dihydroxyvitamin D3	EC50 ratio	15
C(=C/c1ccccc1)/c1ccccc1	cord blood CD34+ cells	caspase-3 activity, flow cytometry	24 h		EC50	> 50 µM
Cc1ccc(C2=Nn3c(N/N=C4/C(=O)Nc5ccc(Br)cc54)nnc3SC2)cc1	UACC-257	cell growth or viability, SRB	10 µM		inhibition	23%
CC(=O)OC[C@H]1O[C@@H](Sc2sc(C(=O)c3ccc(C)cc3)c(N)c2-c2nc3ccccc3s2)[C@H](OC(C)=O)[C@@H](OC(C)=O)[C@H]1OC(C)=O	UACC-257	SRB	10 µM, 48 h	reference: untreated	growth	98.5%
CC(=C(c1ccc(O)cc1)c1ccc(Cl)cc1)c1ccc(Cl)cc1	SN12C	cell growth or viability			GI50	0.51 µM
N=C(N)Nc1ccc2[nH]c(-c3ccc(-c4nc5cc(NC(=N)N)ccc5[nH]4)cc3)nc2c1	sample A patient fibroblasts	MBNL1 exon 5 splicing rescue			lowest effective concentration	200 µM
C[N+](C)(C)c1ccc(C2NC(c3ccc([N+](C)(C)C)cc3)C34c5c6c7c8c9c%10c(c%11c%12c3c3c5c5c%13c6c6c7c7c9c9c%14c%10c%10c%11c%11c%12c%12c3c3c5c5c%13c%13c6c6c7c9c7c9c%14c%10c%10c%11c%11c%12c3c3c5c5c%13c6c7c6c9c%10c%11c3c56)C824)cc1 (stereo not shown)	BCBL1	cell growth or viability	24 h		CC50	18.1 µM
Cc1nn(-c2ccc(S(=O)(=O)N[C@@H](CO)CC(C)C)cc2)c2nn3nnnc3nc12	HT-29	AO/EB staining	2 µM, 24 h		apoptotic cells	38.5 ± 2.12%
O=Cc1c(O)ccc2ccccc12	HUVEC	RNA sequencing, item: HIST2H2BE	75 µM, 24 h	reference: DMSO	log2 fold change	3.27
COc1cc(CNC(=O)C[C@H](C)CCC=C(C)C)ccc1OCc1cn(-c2ccccc2[N+](=O)[O-])nn1	NCI-H322M	SRB	10 µM, 48 h		growth percent	94.4%
CC(C)c1cccc(C(C)C)c1N1CCN(c2c(C(C)C)cccc2C(C)C)C1=[Se].[Cl][Au]	A2780 ADR	MTT		reference: A2780 ADR over A2780	resistance factor	0.5
COc1cc(CNC(=O)C[C@H](C)CCC=C(C)C)ccc1O	SN12C	SRB	10 µM, 48 h		growth percent	82.2%
O=C(NCCCNc1n[n+]([O-])c2ccccc2[n+]1[O-])C(F)(F)F	HUVEC and fibroblast co-culture		2 µM, 264 h		tube formation reduction	10 to 22%
COc1ccc(C=C2SC(N3N=C(c4cccs4)CC3c3ccc(F)cc3)=NC2=O)cc1 (stereo not shown)	T47D	PI flow cytometry	concentration not given, 24 h		cells in %Sub-G1 phase	26.8%

Compound	cell line	test	conditions	how to read	measurement	result
CC/C=C\C/C=C\C/C=C\C/C=C\C/C=C\C/C=C\CCC(=O)Nc1ccn(C2OC(CO)C(O)C2(F)F)c(=O)n1 (stereo not shown)	NCI-H23	NCI60 screen			TGI	12.7 µM
CCN(CC)CC(=O)N1CCN(c2nc(NCc3nc4cc(Cl)c(Cl)cc4[nH]3)c3ncn(CC)c3n2)CC1	MDA-MB-231	western blot	concentration not given, 6 h		RNA Pol II Ser2 phosphorylation	decreased
CCCCCCCCCCCCCCCCCCOc1ccccc1CCOP(=O)([O-])OCC[N+](C)(C)C	nine NSCLC cell lines		10 µM		mean growth inhibition	27.7%
Cc1ccc(CN2C(=O)/C(=N\c3ccc(Cl)cc3Br)c3ccccc32)cc1	A-375	cell growth or viability	1.8 µM		inhibition	48.1%
COc1ccc(C2=NN(C3=NC(=O)C(=Cc4ccc(O)cc4)S3)C(c3ccc(F)cc3)C2)cc1 (stereo not shown)	T47D	PI flow cytometry	concentration not given, 24 h		cells in %G0-G1 phase	32.6%
CO[C@H]1N(OC)c2ccccc2[C@@]12CN=C(Nc1cc(C(F)(F)F)cc(C(F)(F)F)c1)S2 (relative stereo)	HCT-116	PI flow cytometry	40 µM, 72 h		G0/G1 phase cells	34.1 ± 9.89%
O=C1OCC2=C1C(c1cccc(Br)c1)C1=C(N2)C(=O)c2ccccc2C1=O (stereo not shown)	SK-LU-1 cells	annexin V/PI	0.16 µM, 24 h		early apoptotic cells	8.48%
COc1cc(CN2CCN(c3ccc(F)cc3)CC2)c2cc3[n+](cc2c1O)CCc1cc2c(cc1-3)OCO2	Ca-Ski and MDCK	SRB	48 h	reference: CC50 MDCK over IC50 Ca-Ski	therapeutic index	24.1
COC(=O)CCC(=O)Oc1ccc(/C=C/C(=O)CC(=O)/C=C/c2ccc(O)c(OC)c2)cc1OC	MHCC97H	Annexin V/PI flow cytometry	10 µM, 24 h		apoptotic cells	37.4 ± 1.56%
CCCCCCCCCCCCCCCC(=O)N[C@@H](CCCCN)C(=O)N[C@@H](CCCCN)C(=O)N[C@@H](CO)C(=O)N[C@@H](CCCNC(=N)N)C(=O)N[C@@H](C)C(=O)N[C@@H](CC(C)C)C(=O)N[C@@H](Cc1ccccc1)C(N)=O	human platelets	platelet aggregation, antagonist	3 µM, together with: thrombin	reference: vehicle	shift of thrombin concentration-response	5 fold
CCCC(CCC)C(=O)[O][Pt]([NH2])([NH2])([Cl])([Cl])[O]C(=O)C(C)c1ccc(CC(C)C)cc1 (stereo not shown)	PSN1		1 µM, 24 h		depolarised mitochondria cells	30 to 40%
COC(=O)CC[C@@H](NC(=O)[C@@H](Cc1ccc(OP(=O)(O)O)cc1)NC(=O)[C@@H](Cc1ccccc1)NC(=O)[C@@H](Cc1ccccc1)NC(=O)Cc1ccc2ccccc2c1)C(=O)OC	SAOS-2	cell growth or viability, MTT			IC90	8.8 µg/mL (≈ 9.99 µM)
CCC(=C(c1ccc(Cl)cc1)c1ccc(OCCCN(C)C)cc1)c1ccc(OC)cc1	Ishikawa	estrogenic activity, agonist	10 nM, 72 h, unit not given	reference: DMSO	alkaline phosphatase activity	1.47 ± 0.45
CC(C)(C)c1nc(-c2cccc(NS(=O)(=O)c3c(F)cccc3F)c2F)c(-c2ccnc(N)n2)s1.Cc1[nH]c2ccccc2c1CCNCc1ccc(/C=C/C(=O)NO)cc1	C13	flow cytometry	concentration not given, 48 h, concentration about IC50		cells in S phase	2.82%
COc1ccc([C@@H]2CC(=O)c3c(O)cc(O[C@@H]4O[C@H](CO[C@@H]5O[C@@H](C)[C@H](O)[C@@H](O)[C@H]5O)[C@@H](O[C@H]5O[C@H](CO)[C@@H](O)[C@H](O)[C@H]5O)[C@H](O)[C@H]4O)cc3O2)cc1O	A549	cell migration, scratch	50 µg/mL, 24 h		gap closure	4.46 ± 0.73%
COc1cc(CNC(=O)C[C@H](C)CCC=C(C)C)ccc1OCc1cn(-c2ccc(Cl)c(Cl)c2)nn1	CAKI-1	SRB	10 µM, 48 h		growth percent	64%
COc1cc(CN2CCN(c3ccc(Cl)cc3)CC2)c2cc3[n+](cc2c1O)CCc1cc2c(cc1-3)OCO2	Ca-Ski and MDCK	SRB	48 h	reference: CC50 MDCK over IC50 Ca-Ski	therapeutic index	27.8
CCC12CCc3c(c4ccccc4n3C)CCN(CC3OC31)C2 (stereo not shown)	BV-2	western blot	6, 12 and 25 µM, together with: LPS		iNOS and COX-2 protein level	decreased
CC(=O)OC[C@H]1O[C@@H](Sc2sc(C(=O)c3ccc(Br)cc3)c(N)c2-c2nc3ccccc3s2)[C@H](OC(C)=O)[C@@H](OC(C)=O)[C@@H]1OC(C)=O	SK-MEL-5	SRB	10 µM, 48 h	reference: untreated	growth	22.1%
N=C(N/N=C/c1cc2ccccc2c2ccccc12)N/N=C/c1cc2ccccc2c2ccccc12	PANC-1	crystal violet	72 h	reference: IC50 IMR-90 over IC50 PANC-1	selectivity ratio	1.3
[Cl-].[Cl][Ru-]1[S+]=C(N2CCCC2)N[N+]1=Cc1ccc(N(c2ccccc2)c2ccccc2)cc1.c1ccccc1	HeLa S3		5 µM, 24 h, then 10 days growth		colony formation	inhibited
COc1ccc(NC(=O)COc2ccc(/C=C/C(C)=N/O)cc2OC)cc1	SH-SY5Y	DCFDA flow cytometry	10 µM, together with: amyloid beta 10 µM		ROS-positive cells	38.8%
COc1cc(CNC(=O)C[C@H](C)CCC=C(C)C)ccc1OCc1cn(-c2ccc(Br)cc2)nn1	SN12C	SRB	10 µM, 48 h		growth percent	71.6%
CCCCCCCCCCCCCCCCCCCCCCCC(=O)OCC(O)CO (stereo not shown)	J774.2	inhibitor	concentration not given, together with: LPS		nitric oxide production	inactive
COc1cc(CNC(=O)C[C@H](C)CCC=C(C)C)ccc1OCc1cn(-c2ccc(F)cc2)nn1	TK-10	SRB	10 µM, 48 h		growth percent	91.8%
COc1ccc(Cl)cc1C(=O)NCCc1ccc(S(=O)(=O)NC(=O)NC2CCCCC2)cc1	hiPSC cardiac tissues 3D	active force	15 min per concentration, paced at 1 Hz serum-free		minimum effective concentration	> 100 µM

A few entries again:
Compound	cell line	test	conditions	how to read	measurement	result
COc1cc(CNC(=O)C[C@H](C)CCC=C(C)C)ccc1O	SN12C	SRB	10 µM, 48 h		growth percent	82.2%
CC(C)c1cccc(C(C)C)c1N1CCN(c2c(C(C)C)cccc2C(C)C)C1=[Se].[Cl][Au]	A2780 ADR	MTT		reference: A2780 ADR over A2780	resistance factor	0.5
CCCCCCCCCCCCCCCC(=O)N[C@@H](CCCCN)C(=O)N[C@@H](CCCCN)C(=O)N[C@@H](CO)C(=O)N[C@@H](CCCNC(=N)N)C(=O)N[C@@H](C)C(=O)N[C@@H](CC(C)C)C(=O)N[C@@H](Cc1ccccc1)C(N)=O	human platelets	platelet aggregation, antagonist	3 µM, together with: thrombin	reference: vehicle	shift of thrombin concentration-response	5 fold
O=C(NCCCNc1n[n+]([O-])c2ccccc2[n+]1[O-])C(F)(F)F	HUVEC and fibroblast co-culture		2 µM, 264 h		tube formation reduction	10 to 22%
COc1cc(CN2CCN(c3ccc(Cl)cc3)CC2)c2cc3[n+](cc2c1O)CCc1cc2c(cc1-3)OCO2	Ca-Ski and MDCK	SRB	48 h	reference: CC50 MDCK over IC50 Ca-Ski	therapeutic index	27.8
CCCCCCCCCCCCCCCCCCCCCCCC(=O)OCC(O)CO (stereo not shown)	J774.2	inhibitor	concentration not given, together with: LPS		nitric oxide production	inactive
O=Cc1c(O)ccc2ccccc12	HUVEC	RNA sequencing, item: HIST2H2BE	75 µM, 24 h	reference: DMSO	log2 fold change	3.27
